Published values gathered from unrelated publications.
Each line is one published result; not all experiments were run side by side.

O=C1Nc2cc3[nH]nc(-c4ccncc4)c3cc2CN1Cc1ccccc1  patients with grade ≥1 TEAE (patients with advanced solid tumours; intravenous, dose not given, both schedules pooled): 100%
N[C@@H]1c2ccccc2OC12CCN(c1cnc3c(N4CCCc5ncccc54)n[nH]c3n1)CC2  patients with fatal TEAE (advanced solid tumour patients; oral, 150 mg once daily): 0%
Cc1cc(OCCOCCC(F)(F)P(=O)(O)O)ccc1CCc1cnc2c(N)nc3cc(CCC(=O)O)ccc3c2c1  patients with non-serious AE (refers to: vomiting; adults with advanced solid tumours; dose not given, by treatment group, all grades): 9.5%
CN1CC[C@@H](c2c(O)cc(O)c3c(=O)cc(-c4ccc(C(F)(F)F)cc4Cl)oc23)[C@@H]1CO  patients with adverse event (refers to: rectal abscess; B-cell malignancies; oral, 150 mg, grade 3 to 4, intermittent dosing): 0%
CC(=O)c1c(C)c2cnc(Nc3ccc(C4CCN(CCS(C)(=O)=O)CC4)cn3)nc2n(C2CCCC2)c1=O  patients with neutropenia (HR+/HER2- advanced breast cancer patients; oral, 100 mg bid, grade 3/4, monotherapy arm): 73.3%
CCN(CCO)CCCC(C)Nc1ccnc2cc(Cl)ccc12 (stereo not shown)  patients with adverse event (refers to: Bruising grade 1; newly diagnosed glioblastoma patients; oral, 800 mg/dose, with radiotherapy and temozolomide): 33%
Nc1nc2cc(-c3ccc4ncc(C(=O)N5CCOCC5)n4c3)ccc2o1  patients with adverse event (refers to: Vomiting; advanced solid tumour patients; dose not given): 3%
CO[C@H]1C[C@@H]2CC[C@@H](C)[C@@](O)(O2)C(=O)C(=O)N2CCCC[C@H]2C(=O)O[C@H]([C@H](C)C[C@@H]2CC[C@@H](OC(=O)NCCOCCOCCOCCOCCOCCOCCOCCOCCC(=O)N3CCc4cc(Cn5nc(-c6ccc7oc(N)nc7c6)c6c(N)ncnc65)ccc4C3)[C@H](OC)C2)C[C@@H](O)[C@H](C)/C=C(\C)[C@@H](O)[C@@H](OC)C(=O)[C@H](C)C[C@H](C)/C=C/C=C/C=C/1C  patients with AE (refers to: mucositis TEAE, any grade; patients with advanced solid tumours; intravenous, dose not given, all patients, weekly): 58%
C[C@@H]1OC(=O)NN=C1c1ccc(-c2ccc(F)cc2)c(C(F)(F)F)c1  patients with muscle spasms (patients, phase I trial; oral, 5 mg once daily, any grade TEAE): 0%
C=CCNc1c(O)cc2c(O)c1C[C@@H](C)C[C@H](OC)[C@H](O)[C@@H](C)/C=C(\C)[C@H](OC(N)=O)[C@@H](OC)/C=C\C=C(/C)C(=O)N2  patients with sinus bradycardia (unresectable or metastatic STS, GIST, other; intravenous, 400 mg/m^2): 19%

A few entries again:
O=C1Nc2cc3[nH]nc(-c4ccncc4)c3cc2CN1Cc1ccccc1  patients with grade ≥1 TEAE (patients with advanced solid tumours; intravenous, dose not given, both schedules pooled): 100%
